Measurements gathered from unrelated publications.
Lines come from different studies, so protocols differ. ± gives the spread as reported.
GLP1R: Glucagon-like peptide 1 receptor (GLP1R, Homo sapiens, UniProt P43220)
GPR17 long isoform: Uracil nucleotide/cysteinyl leukotriene receptor, long isoform (GPR17, Homo sapiens, UniProt Q13304)
KCNT1: Potassium channel subfamily T member 1 (KCNT1, Homo sapiens, UniProt Q5JUK3)
AHR: Aryl hydrocarbon receptor (AHR, Homo sapiens, UniProt P35869)

Sequences of proteins named here, by UniProt entry; tags and fusion partners are left off. Residues count along the entry.
UniProt P43220, whole entry, looked up: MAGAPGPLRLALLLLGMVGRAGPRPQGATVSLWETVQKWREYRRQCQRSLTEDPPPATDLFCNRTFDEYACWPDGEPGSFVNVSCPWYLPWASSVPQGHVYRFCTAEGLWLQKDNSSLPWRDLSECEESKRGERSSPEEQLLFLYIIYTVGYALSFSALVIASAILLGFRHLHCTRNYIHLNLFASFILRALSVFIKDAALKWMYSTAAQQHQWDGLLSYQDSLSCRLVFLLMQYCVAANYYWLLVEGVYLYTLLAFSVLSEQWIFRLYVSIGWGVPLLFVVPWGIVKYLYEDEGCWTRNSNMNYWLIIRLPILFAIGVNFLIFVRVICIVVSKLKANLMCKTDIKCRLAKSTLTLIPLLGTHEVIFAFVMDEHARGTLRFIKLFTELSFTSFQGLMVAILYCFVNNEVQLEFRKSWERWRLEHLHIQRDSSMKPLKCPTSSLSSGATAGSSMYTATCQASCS
UniProt P43220, 24-463 limits assumed: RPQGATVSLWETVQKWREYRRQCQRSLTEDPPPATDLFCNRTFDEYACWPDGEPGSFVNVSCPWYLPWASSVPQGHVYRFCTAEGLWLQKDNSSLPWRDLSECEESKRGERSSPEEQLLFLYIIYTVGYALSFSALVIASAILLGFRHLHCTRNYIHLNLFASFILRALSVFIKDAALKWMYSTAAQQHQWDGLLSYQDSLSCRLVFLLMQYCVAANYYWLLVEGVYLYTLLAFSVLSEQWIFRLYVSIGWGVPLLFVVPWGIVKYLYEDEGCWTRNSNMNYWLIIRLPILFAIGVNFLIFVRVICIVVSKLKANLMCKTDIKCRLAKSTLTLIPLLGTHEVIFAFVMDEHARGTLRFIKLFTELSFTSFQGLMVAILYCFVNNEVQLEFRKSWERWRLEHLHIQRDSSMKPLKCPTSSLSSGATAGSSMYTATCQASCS
UniProt Q13304, whole entry: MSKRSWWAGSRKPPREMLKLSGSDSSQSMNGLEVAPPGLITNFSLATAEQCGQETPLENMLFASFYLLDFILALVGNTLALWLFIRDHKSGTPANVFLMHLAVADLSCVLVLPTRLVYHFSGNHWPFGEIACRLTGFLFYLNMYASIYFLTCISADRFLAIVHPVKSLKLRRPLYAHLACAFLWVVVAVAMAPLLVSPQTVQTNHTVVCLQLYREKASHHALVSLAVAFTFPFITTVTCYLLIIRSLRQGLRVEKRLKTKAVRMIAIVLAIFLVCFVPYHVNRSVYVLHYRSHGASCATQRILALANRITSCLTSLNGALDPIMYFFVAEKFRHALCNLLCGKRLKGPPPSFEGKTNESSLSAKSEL
UniProt Q5JUK3, whole entry: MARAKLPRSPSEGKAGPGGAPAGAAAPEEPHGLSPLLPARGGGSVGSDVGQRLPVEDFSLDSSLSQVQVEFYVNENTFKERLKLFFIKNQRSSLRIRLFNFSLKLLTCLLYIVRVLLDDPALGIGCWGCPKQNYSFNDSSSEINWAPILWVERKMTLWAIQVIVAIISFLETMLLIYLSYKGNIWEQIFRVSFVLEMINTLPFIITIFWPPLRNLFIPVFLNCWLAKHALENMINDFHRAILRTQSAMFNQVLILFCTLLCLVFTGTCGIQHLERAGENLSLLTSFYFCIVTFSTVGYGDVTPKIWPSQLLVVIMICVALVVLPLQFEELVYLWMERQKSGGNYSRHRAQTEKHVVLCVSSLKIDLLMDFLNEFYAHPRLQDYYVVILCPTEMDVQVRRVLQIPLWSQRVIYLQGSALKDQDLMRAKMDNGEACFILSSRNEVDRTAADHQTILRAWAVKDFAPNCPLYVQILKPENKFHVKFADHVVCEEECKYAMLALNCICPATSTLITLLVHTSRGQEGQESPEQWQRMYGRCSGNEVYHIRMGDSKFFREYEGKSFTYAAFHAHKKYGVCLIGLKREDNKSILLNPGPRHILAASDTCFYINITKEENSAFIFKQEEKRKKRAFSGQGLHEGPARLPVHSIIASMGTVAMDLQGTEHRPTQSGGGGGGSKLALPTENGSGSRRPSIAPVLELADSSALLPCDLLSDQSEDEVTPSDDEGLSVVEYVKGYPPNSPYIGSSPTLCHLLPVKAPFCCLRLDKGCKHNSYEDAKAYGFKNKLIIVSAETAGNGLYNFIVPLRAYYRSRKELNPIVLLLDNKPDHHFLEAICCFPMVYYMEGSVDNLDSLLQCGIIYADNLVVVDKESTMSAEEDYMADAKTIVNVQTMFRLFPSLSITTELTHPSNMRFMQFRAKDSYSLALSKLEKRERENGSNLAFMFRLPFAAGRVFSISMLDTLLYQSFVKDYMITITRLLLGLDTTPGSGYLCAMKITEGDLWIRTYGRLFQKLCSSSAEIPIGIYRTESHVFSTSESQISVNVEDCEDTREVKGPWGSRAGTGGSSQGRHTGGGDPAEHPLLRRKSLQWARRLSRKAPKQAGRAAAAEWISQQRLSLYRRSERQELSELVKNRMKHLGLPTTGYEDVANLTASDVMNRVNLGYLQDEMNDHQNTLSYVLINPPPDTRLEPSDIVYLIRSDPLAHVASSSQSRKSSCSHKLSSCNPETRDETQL
UniProt P35869, whole entry, looked up: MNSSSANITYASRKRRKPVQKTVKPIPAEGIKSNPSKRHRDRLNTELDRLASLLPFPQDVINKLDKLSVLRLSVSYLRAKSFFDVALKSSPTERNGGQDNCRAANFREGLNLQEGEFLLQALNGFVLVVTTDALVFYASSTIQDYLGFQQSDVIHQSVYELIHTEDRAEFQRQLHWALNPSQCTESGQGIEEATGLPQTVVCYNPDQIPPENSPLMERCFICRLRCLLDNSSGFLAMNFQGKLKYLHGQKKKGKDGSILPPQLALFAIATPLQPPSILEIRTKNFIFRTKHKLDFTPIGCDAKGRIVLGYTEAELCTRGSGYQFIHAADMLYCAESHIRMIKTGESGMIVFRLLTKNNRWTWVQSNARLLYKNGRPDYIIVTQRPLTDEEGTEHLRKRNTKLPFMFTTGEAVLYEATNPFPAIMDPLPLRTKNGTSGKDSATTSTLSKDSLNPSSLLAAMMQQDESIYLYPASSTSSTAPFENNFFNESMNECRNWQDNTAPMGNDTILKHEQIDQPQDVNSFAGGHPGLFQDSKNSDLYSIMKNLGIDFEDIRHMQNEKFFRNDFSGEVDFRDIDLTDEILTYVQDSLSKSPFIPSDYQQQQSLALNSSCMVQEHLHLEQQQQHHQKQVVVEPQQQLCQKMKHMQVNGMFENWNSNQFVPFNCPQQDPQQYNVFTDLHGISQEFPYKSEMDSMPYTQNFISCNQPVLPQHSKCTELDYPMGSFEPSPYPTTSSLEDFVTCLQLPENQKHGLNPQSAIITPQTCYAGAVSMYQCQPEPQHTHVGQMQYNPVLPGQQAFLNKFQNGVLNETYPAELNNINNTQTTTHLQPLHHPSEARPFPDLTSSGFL
UniProt P30518, whole entry: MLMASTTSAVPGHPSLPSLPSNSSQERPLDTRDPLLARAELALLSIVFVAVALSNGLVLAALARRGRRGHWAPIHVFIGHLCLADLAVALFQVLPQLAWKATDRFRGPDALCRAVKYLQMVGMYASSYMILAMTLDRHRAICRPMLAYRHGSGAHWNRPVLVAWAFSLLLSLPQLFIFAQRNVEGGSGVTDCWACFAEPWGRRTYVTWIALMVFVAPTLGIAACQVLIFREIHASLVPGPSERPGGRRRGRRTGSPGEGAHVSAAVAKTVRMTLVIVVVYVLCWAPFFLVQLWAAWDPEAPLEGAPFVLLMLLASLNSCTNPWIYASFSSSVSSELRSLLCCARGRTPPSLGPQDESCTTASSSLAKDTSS
UniProt P30542, whole entry: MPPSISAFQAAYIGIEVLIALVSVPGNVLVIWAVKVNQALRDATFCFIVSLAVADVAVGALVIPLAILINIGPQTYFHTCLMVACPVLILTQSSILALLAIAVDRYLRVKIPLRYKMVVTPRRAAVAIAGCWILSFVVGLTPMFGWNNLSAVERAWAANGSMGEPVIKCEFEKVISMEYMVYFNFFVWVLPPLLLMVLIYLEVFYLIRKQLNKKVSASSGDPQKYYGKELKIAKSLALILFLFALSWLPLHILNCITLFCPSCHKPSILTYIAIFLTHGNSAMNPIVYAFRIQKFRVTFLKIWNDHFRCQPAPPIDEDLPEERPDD

Structure (SMILES)	target or system	test	test system	conditions	how to read	measurement	result
COc1ccccc1-c1cc(C(F)(F)F)nc(S(C)(=O)=O)n1	Vasopressin V2 receptor (AVPR2, Homo sapiens, UniProt P30518)	cAMP accumulation, positive allosteric modulator	CHO-K1 overexpressing target	together with: vasopressin at EC20	–	Emax	16 ± 2.9%
Cc1[nH]c2cc(Cl)cc(Cl)c2c1CCn1cc(COCCOCCO)nn1	GLP1R	cAMP accumulation, positive allosteric modulator, HTRF	–	0.6 µM, crude reaction product, together with: GLP-1(9-36) at EC20	reference: BETP	Emax	105%
O=C(Nc1ccc(Cl)cc1)C(NS(=O)(=O)c1cccs1)c1ccccc1Cl (stereo not drawn)	GPR17 long isoform	calcium mobilization, antagonist	1321N1 stably expressing GPR17	fitted at highest concentration	higher = stronger inhibition	Emax	118 ± 1.54%
O=S(=O)(c1cccc(C(F)(F)F)c1)N1CCC(Cn2cnc3ccc(C(F)(F)F)cc32)CC1	KCNT1	thallium flux, activator	HEK293 expressing KCNT1	30 µM	reference: loxapine maximal response	Emax	82%
COc1cc([C@@H]2c3cc4c(cc3[C@H](CC(C)C)[C@H]3COC(=O)[C@H]23)OCO4)cc(OC)c1OC	Leishmania infantum	iRFP fluorescence	mouse splenocytes infected, amastigote, iRFP, ex vivo splenic explant	48 h	–	EC50	15.6 ± 0.1 µM
CCS(=O)(=O)c1nc(-c2ccc(F)cc2)cc(C(F)F)n1	GLP1R	cAMP accumulation, positive allosteric modulator	HEK293T overexpressing target	together with: GLP-1 at EC20	–	Emax	76 ± 1.6%
COc1ccc2c(c1)ncn2CC1CCN(S(=O)(=O)c2cccc(C(F)(F)F)c2)CC1	KCNT1	thallium flux, activator	HEK293 expressing KCNT1	30 µM	reference: loxapine maximal response	Emax	59%
COC(=O)[C@@H]1C(c2nc3cc(C)ccc3o2)=Cc2cc3c(cc2[C@H]1c1cc(OC)c(OC)c(OC)c1)OCO3	Leishmania	–	mouse splenocytes	–	reference: CC50 over amastigote EC50	selectivity index	8.9
O=C(Nc1cccc(Br)c1)C(NS(=O)(=O)c1cccs1)c1ccccc1 (stereo not drawn)	GPR17 long isoform	calcium mobilization, antagonist	1321N1 stably expressing GPR17	fitted at highest concentration	higher = stronger inhibition	Emax	74.9 ± 1.88%
COc1cccc2c1ncn2CC1CCN(S(=O)(=O)c2cccc(C(F)(F)F)c2)CC1	KCNT1	thallium flux, activator	HEK293 expressing KCNT1	30 µM	reference: loxapine maximal response	Emax	62%
CC(=O)NCc1cn(CCc2c(C)[nH]c3cc(Cl)cc(Cl)c23)nn1	GLP1R	cAMP accumulation, positive allosteric modulator, HTRF	–	0.6 µM, purified compound, together with: GLP-1(9-36) at EC20	reference: BETP	Emax	114 ± 3%
O=C(O)c1cccc(C(=O)c2c[nH]c3ccccc23)n1	AHR	reporter gene, agonist	–	–	reference: ITE	Emax	50 ± 2%
Cc1ccc(S(=O)(=O)OCCc2cn(CCc3c(C)[nH]c4cc(Cl)cc(Cl)c34)nn2)cc1	GLP1R	cAMP accumulation, positive allosteric modulator, HTRF	–	0.6 µM, crude reaction product, together with: GLP-1(9-36) at EC20	reference: BETP	Emax	105%
O=C(c1cccc(-c2ccccc2)n1)c1c[nH]c2ccccc12	AHR	reporter gene, agonist	–	–	reference: ITE	Emax	65 ± 3%
CCCC(O)c1cn(CCc2c(C)[nH]c3cc(Cl)cc(Cl)c23)nn1 (stereo not drawn)	GLP1R	cAMP accumulation, positive allosteric modulator, HTRF	–	0.6 µM, purified compound, together with: GLP-1(9-36) at EC20	reference: BETP	Emax	101 ± 7%
Cc1cccc(CSc2nc(N)c(C#N)c(-c3cccc(F)c3)c2C#N)n1	Adenosine receptor A1 (ADORA1, Homo sapiens, UniProt P30542)	cAMP accumulation	–	–	reference: N6-cyclopentyladenosine	Emax	20 ± 3.5%
O=C(c1cccc(N2CCOCC2)n1)c1c[nH]c2ccccc12	AHR	reporter gene, agonist	–	–	reference: ITE	Emax	59 ± 1%

Structure (SMILES)	target or system	test	test system	conditions	how to read	measurement	result
COC(=O)Cc1ccc(C(NS(=O)(=O)c2cccs2)C(=O)Nc2ccc(Cl)cc2)cc1 (stereo not drawn)	GPR17 long isoform	calcium mobilization, antagonist	1321N1 stably expressing GPR17	fitted at highest concentration	higher = stronger inhibition	Emax	137 ± 4.38%
O=S(=O)(c1cccc(C(F)(F)F)c1)N1CCC(Cn2cnc3cccc(C(F)(F)F)c32)CC1	KCNT1	thallium flux, activator	HEK293 expressing KCNT1	30 µM	reference: loxapine maximal response	Emax	40%
COC(=O)[C@@]1(C)C=C(C(=O)Nc2cccc(C(=O)NC34CC(Nc5nccc(-c6cccnc6)n5)(C3)C4)c2)C(=O)CC1	Mitogen-activated protein kinase 9 (MAPK9, Homo sapiens, UniProt P45984)	enzyme activity, inhibitor	–	0.5487 µM	–	remaining activity	0.138 fraction of control
Cc1ccccc1C(NS(=O)(=O)c1cccs1)C(=O)Nc1ccc(Cl)cc1 (stereo not drawn)	GPR17 long isoform	calcium mobilization, antagonist	1321N1 stably expressing GPR17	fitted at highest concentration	higher = stronger inhibition	Emax	123 ± 3.12%
Cc1[nH]c2cc(Cl)cc(Cl)c2c1CCn1cc(CCCC#N)nn1	GLP1R	cAMP accumulation, positive allosteric modulator, HTRF	–	0.6 µM, purified compound, together with: GLP-1(9-36) at EC20	reference: BETP	Emax	99 ± 3%
COc1ccc2ncn(CC3CCN(S(=O)(=O)c4cccc(C(F)(F)F)c4)CC3)c2c1	KCNT1	thallium flux, activator	HEK293 expressing KCNT1	30 µM	reference: loxapine maximal response	Emax	88%
O=C(Nc1ccc(Cl)cc1)C(NS(=O)(=O)c1ccc(Br)cc1)c1ccccc1 (stereo not drawn)	GPR17 long isoform	calcium mobilization, antagonist	1321N1 stably expressing GPR17	fitted at highest concentration	higher = stronger inhibition	Emax	99.7 ± 9.28%
COC(=O)c1cccc(C(=O)c2cn(C)c3ccccc23)n1	AHR	reporter gene, agonist	–	–	reference: ITE	Emax	58 ± 3%
Cc1[nH]c2cc(Cl)cc(Cl)c2c1CCn1cc(CCCCO)nn1	GLP1R	cAMP accumulation, positive allosteric modulator, HTRF	–	0.6 µM, crude reaction product, together with: GLP-1(9-36) at EC20	reference: BETP	Emax	82.6%
COC(=O)c1ccc(C(=O)c2c[nH]c3ccccc23)cn1	AHR	reporter gene, agonist	–	–	reference: ITE	Emax	47 ± 1%
O=C(Nc1ccc(Cl)cc1)C(NS(=O)(=O)c1cccs1)c1cccc(F)c1 (stereo not drawn)	GPR17 long isoform	calcium mobilization, antagonist	1321N1 stably expressing GPR17	fitted at highest concentration	higher = stronger inhibition	Emax	111 ± 1.84%
CC(C)(Cn1cc(-c2ccc(B(O)O)cc2)nn1)c1c[nH]c2ccccc12	GLP1R	cAMP accumulation, positive allosteric modulator, HTRF	–	0.6 µM, crude reaction product, together with: GLP-1(9-36) at EC20	reference: BETP	Emax	97%
O=C(Nc1ccc(Cl)cc1)C(NS(=O)(=O)c1cccs1)c1ccc(F)cc1 (stereo not drawn)	GPR17 long isoform	calcium mobilization, antagonist	1321N1 stably expressing GPR17	fitted at highest concentration	higher = stronger inhibition	Emax	93 ± 8.02%
CC(C)(Cn1cc(-c2ccc(N)nc2)nn1)c1c[nH]c2ccccc12	GLP1R	cAMP accumulation, positive allosteric modulator, HTRF	–	0.6 µM, purified compound, together with: GLP-1(9-36) at EC20	reference: BETP	Emax	111 ± 6%
Cc1cccc2c1ncn2CC1CCN(S(=O)(=O)c2cccc(C(F)(F)F)c2)CC1	KCNT1	thallium flux, activator	HEK293 expressing KCNT1	30 µM	reference: loxapine maximal response	Emax	90%
O=C(Nc1cccc(-c2cc[nH]n2)c1)C(NS(=O)(=O)c1cccs1)c1ccccc1 (stereo not drawn)	GPR17 long isoform	calcium mobilization, antagonist	1321N1 stably expressing GPR17	fitted at highest concentration	higher = stronger inhibition	Emax	100 ± 4.85%

Excerpt of the above:
Structure (SMILES)	target or system	test	test system	conditions	how to read	measurement	result
O=C(Nc1ccc(Cl)cc1)C(NS(=O)(=O)c1cccs1)c1ccc(F)cc1 (stereo not drawn)	GPR17 long isoform	calcium mobilization, antagonist	1321N1 stably expressing GPR17	fitted at highest concentration	higher = stronger inhibition	Emax	93 ± 8.02%
CC(C)(Cn1cc(-c2ccc(B(O)O)cc2)nn1)c1c[nH]c2ccccc12	GLP1R	cAMP accumulation, positive allosteric modulator, HTRF	–	0.6 µM, crude reaction product, together with: GLP-1(9-36) at EC20	reference: BETP	Emax	97%
COc1ccccc1-c1cc(C(F)(F)F)nc(S(C)(=O)=O)n1	Vasopressin V2 receptor (AVPR2, Homo sapiens, UniProt P30518)	cAMP accumulation, positive allosteric modulator	CHO-K1 overexpressing target	together with: vasopressin at EC20	–	Emax	16 ± 2.9%
